Measurements pooled from the literature.
Compare with care: the assays were run in different laboratories. ± marks the error that the study gave.
Target: fMet-Leu-Phe receptor (FPR1, Homo sapiens, UniProt P21462)

| Substance | assay | system | endpoint | result |
| --- | --- | --- | --- | --- |
| CCCN1C(=O)C(O)=C(C(=O)c2ccccc2)C1c1cc(OC)ccc1OC (stereo not drawn) | calcium signal, antagonist |  | IC50 | 1.5 µM |
| CC1(C)CC[C@]2(C(=O)O)CC[C@]3(C)C(=CC[C@@H]4[C@@]5(C)CC[C@H](O)C(C)(C)[C@@H]5CC[C@]43C)[C@@H]2C1 | calcium signal |  | IC50 | 14.5 µM |
| CC1=NN(CC(=O)Nc2ccc(Br)cc2)C(=O)CC1C (racemic) | calcium signal, agonist |  | EC50 | 13 µM |
| COc1ccc(C2(CNC(=O)[C@](C)(Cc3c[nH]c4ccccc34)NC(=O)Nc3ccc([N+](=O)[O-])cc3)CCCCC2)nc1 | calcium mobilization, agonist | HL-60 cells expressing FPR1 | EC50 | 0.33 ± 0.12 µM |
| C[C@H](CCC(=O)O)[C@H]1CC[C@H]2[C@@H]3[C@H](O)C[C@@H]4C[C@H](O)CC[C@]4(C)[C@H]3CC[C@]12C | calcium signal |  | IC50 | 19.9 µM |
| COCCN1C(=O)C(O)=C(C(=O)c2ccccc2)C1c1cc(OC)ccc1OC (stereo not drawn) | calcium signal, antagonist |  | IC50 | 1.7 µM |
| CC1=NN(CC(=O)Nc2ccc(Br)cc2)C(=O)CC1c1ccccc1 (racemic) | calcium signal, agonist |  | EC50 | 4.1 µM |
| CCCCCCN1C(=O)C(O)=C(C(=O)c2ccc(C)cc2)C1c1ccc(OC)cc1OC (stereo not drawn) | calcium signal, antagonist |  | IC50 | 3.7 µM |
| (+)-episesamin | calcium flux, agonist | HL-60 cells transfected with FPR1 | EC50 | 54.8 ± 5.2 µM |
